Measurements of several laboratories.
Numbered parts are unrelated; each lists some results of a single study. Substitutions count along the parent as printed.

Block 1
Target: ABI1, truncated, D143A, DHFR fusion (Arabidopsis thaliana)
Technique: DHFR PCA, deep sequencing
Sample: yeast
Setting: methotrexate growth selection, single substitutions
Together with: (+)-ABA 200 µM
Baseline: wild-type fitted maximum
Direction: higher = stronger binding
Quantity: relative binding score
Starting sequence: PYL1, truncated, DHFR fusion (Arabidopsis thaliana); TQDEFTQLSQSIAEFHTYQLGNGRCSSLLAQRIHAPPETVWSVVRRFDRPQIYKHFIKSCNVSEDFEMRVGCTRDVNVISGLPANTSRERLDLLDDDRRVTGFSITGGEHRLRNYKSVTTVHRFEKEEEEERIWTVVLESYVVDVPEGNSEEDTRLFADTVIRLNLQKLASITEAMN; partner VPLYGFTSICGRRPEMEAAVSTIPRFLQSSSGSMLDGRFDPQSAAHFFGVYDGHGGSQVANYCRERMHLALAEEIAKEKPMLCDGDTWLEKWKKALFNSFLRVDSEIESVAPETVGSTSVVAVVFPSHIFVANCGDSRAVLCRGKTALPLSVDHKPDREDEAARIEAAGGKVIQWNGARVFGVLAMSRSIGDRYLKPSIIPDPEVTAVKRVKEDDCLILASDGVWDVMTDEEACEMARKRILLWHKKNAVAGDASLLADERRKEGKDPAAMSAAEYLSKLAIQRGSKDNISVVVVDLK
V161M: 75.6%
Q10Y: 87.3%
L138T: 38.6%
R49T: 97.2%
V78M: 92%
I105D: -19.7%
I12G: 30.3%
V118G: 4.93%
A84V: 24.4%
Q167P: -2.19%
A170N: 60.8%
N114H: 94.1%
D75T: 113%
G107Y: 52.5%
I79L: 83%
E130T: 101%
L112G: -3.05%
N165Y: 21.7%
V118D: 1.43%
E131Q: 109%
E109Y: 80.4%
G21Q: 103%
K58L: 85%

Block 2
Target: Interferon regulatory factor 5, full length, phosphomimetic (IRF5, Homo sapiens, UniProt Q13568-2, residues 1-514, K96S/S451D/S453D/S456D/S462D)
Technique: protein-binding microarray
Molecule type: double-stranded DNA, one strand shown
Sample: in vitro
Concentration: 250 nM
Setting: 60-bp whole probe
Together with: salmon DNA 0.4 mg/ml
Baseline: random background probes
Direction: higher = stronger binding
Quantity: log fluorescence
All sequences stand within: GCCTAGCAC … GTCTTGATTCGCTTGACGCTGCTG
GTCACATTGCACAATCTTAATGTGCTA: 0.704 z-score
TTAGGTTGCGGACTGGGTTAGTGCTAG: -0.172 z-score
TAAGGTCTCGGTTTCGGTTAGTGCTAG: 8.54 z-score
TTAGGAATGGGACTGGGTTAGTGCTAG: -0.406 z-score
GACTCTTCAGCACTCGGGTCGTGCTAG: -0.0185 z-score
TTAGAACTGAGAATCGATTAGTGCTAG: 0.841 z-score
GACGAACTGAGACCGGAGACGTGCTAG: -0.414 z-score
GCCGGACTGCTTATCCTGACGTGCTAG: -0.555 z-score
GACGGAGTGGGTTTCGGGACGTGCTAG: 2.15 z-score
TCATCTTTCCACTTGTCACTGTGCTAG: 1.33 z-score
TGAGGTTTCGGTATCGGTTAGTGCTAG: 10.7 z-score
TTAGATATCGGGACTGGATGAGTGCTA: 1.14 z-score
GACGGTATCGGGACCGGGGACGTGCTA: 1.19 z-score
GACGATATCGGGTACCGAGACGTGCTA: 1.52 z-score
GACGATTTCAGTCTCGTGACGTGCTAG: 1.15 z-score
TTAGGTTTCGTTTCCCTTTAGTGCTAG: 8.06 z-score
GAAAAATCTGGAACTAACAGGTGCTAG: 0.475 z-score
TTAGATTTCAGTATCGACTAGTGCTAG: 6.21 z-score
TTAGGTTTCGGTCTCGTTTAGTGCTAG: 10.3 z-score
TTAGGCATCCTACTGCTTTAGTGCTAG: -0.527 z-score
TTAGGTCTCTGTATCGGTTAGTGCTAG: 4.34 z-score
GACGATTCCAGTTTGGAGACGTGCTAG: 0.0312 z-score
TCTATCTGCAGACTCTCACAGTGCTAG: 0.9 z-score
TGAGATTTCGGGTTTCGATTAGTGCTA: 8.08 z-score
GACGGTTGCGGGTTTCGGGACGTGCTA: 1.83 z-score

Block 3
Target: Sal-like protein 4, full length isoform A (SALL4, Homo sapiens, UniProt Q9UJQ4, residues 1-1053)
Chain of UniProt Q9UJQ4 (whole entry, looked up): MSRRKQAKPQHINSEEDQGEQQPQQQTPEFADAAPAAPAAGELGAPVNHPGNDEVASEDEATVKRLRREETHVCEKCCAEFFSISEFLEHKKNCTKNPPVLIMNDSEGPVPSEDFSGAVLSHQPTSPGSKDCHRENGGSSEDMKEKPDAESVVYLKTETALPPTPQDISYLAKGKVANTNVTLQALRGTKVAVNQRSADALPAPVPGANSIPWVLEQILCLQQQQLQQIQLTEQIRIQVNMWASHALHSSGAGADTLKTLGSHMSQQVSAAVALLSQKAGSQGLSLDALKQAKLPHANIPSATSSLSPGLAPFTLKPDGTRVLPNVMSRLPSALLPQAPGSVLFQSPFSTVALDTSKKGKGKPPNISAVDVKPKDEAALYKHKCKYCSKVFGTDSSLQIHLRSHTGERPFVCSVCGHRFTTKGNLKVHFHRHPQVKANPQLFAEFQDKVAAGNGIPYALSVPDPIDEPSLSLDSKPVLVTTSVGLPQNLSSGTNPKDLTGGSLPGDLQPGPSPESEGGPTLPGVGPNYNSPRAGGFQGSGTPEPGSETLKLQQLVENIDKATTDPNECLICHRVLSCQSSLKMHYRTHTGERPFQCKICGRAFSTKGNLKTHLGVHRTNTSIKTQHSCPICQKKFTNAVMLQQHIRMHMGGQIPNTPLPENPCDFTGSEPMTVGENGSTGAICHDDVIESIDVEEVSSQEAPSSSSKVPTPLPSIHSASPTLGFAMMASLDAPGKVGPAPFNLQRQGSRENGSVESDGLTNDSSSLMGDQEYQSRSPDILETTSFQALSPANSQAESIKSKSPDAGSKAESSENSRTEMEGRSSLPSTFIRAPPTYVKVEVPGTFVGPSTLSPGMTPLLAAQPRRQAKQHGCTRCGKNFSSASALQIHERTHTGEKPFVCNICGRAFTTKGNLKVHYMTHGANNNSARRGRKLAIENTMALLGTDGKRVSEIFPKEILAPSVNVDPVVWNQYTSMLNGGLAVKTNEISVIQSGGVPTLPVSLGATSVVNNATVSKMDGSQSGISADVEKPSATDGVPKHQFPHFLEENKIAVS
Technique: universal PBM
Molecule type: double-stranded DNA, one strand shown
Sample: in vitro
Concentration: 600 nM
Setting: 8-mer, flanks averaged, mean of replicates
Direction: higher = stronger binding
Quantity: E-score
GTTGGATA: 0.0757
CATTCTAC: 0.0642
CAGTTTGG: -0.153
CCCTTCCG: -0.22
GGGAACCC: -0.321
CGTCAGAG: -0.0719
ATAACCGC: 0.108
CCTAACGC: -0.0388
TAGCTAAA: 0.103
GTAGATAC: 0.136
CCCGCCAC: -0.115
AGTTAGTG: -0.00312
GAAAAAGA: 0.154
AACCGAGG: -0.227
CCCGCATC: -0.236
CTTGAGGC: -0.259
AATAAACC: 0.274

Block 4
Target: CCND1, cyclin fold, Cln2 fusion (human)
Technique: yeast growth competition, sequencing
Sample: yeast
Setting: weak parent motif
Baseline: not given
Direction: higher = stronger binding
Quantity: normalised enrichment score
Starting sequence: BRCA2 docking peptide (human); CKKRRALDFLSRL; partner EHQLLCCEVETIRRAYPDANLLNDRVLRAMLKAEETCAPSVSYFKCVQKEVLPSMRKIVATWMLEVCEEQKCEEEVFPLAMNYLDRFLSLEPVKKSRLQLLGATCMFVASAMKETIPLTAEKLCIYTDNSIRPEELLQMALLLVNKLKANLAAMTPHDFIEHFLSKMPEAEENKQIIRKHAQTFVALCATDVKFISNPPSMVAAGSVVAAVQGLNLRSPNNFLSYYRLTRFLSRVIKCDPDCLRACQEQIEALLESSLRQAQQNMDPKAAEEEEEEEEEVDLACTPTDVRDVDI
L10A: 0.708
L7A: 0.837
R12A: 1.41
R5K F9L: 0.96
D8A: 0.404
C1A: 0.353
R4A: 0.244

Block 5
Target: UBE2D1 UBC core domain (UniProt P51668)
Technique: yeast two-hybrid
Sample: yeast
Setting: mostly zero background
Baseline: not given
Direction: higher = stronger interaction
Quantity: lacZ reporter activity
B1: RNF32 RING domain (UniProt Q9H0A6); chain VQALRRETHECSICLAPLSAAGGQRVGAGRRSREMALLSCSHVFHHACLLALEEFSVGDRPPFHACPLCRSCYQKKILEC
B2: MARCHF2 RING domain (UniProt Q9P0N8); chain RLLSTVIRALDTPSDGPFCRICHEGANGECLLSPCGCTGTLGAVHKSCLEKWLSSSNTSYCELCHTEFAVEKRPRPLTEWL
B3: CBLL1 RING domain (UniProt Q75N03); chain GEKDDTPVHFCDKCGLPIKIYGRMIPCKHVFCYDCAILHEKKGDKMCPGCSDPVQRIEQCT
B4: NHLRC1 RING domain (UniProt Q6VVB1); chain MREAEISLLECKVCFEKFGHRQQRRPRNLSCGHVVCLACVAALAHPRTLALECPFCRRACRGCDTSD
B5: TRIM74 RING domain (UniProt Q86UV6); chain SLLELEDWLQCPICLEVFKESLMLQCGHSYCKGCLVSLSYHLDTKVRCPMCWQVVDGSSSLP
Construct (chain): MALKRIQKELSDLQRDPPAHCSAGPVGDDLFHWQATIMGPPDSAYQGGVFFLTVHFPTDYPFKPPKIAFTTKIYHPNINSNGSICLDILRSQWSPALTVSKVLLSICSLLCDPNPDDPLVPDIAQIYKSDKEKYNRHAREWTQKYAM
B1 (RNF32 RING domain): 0
EDVLSKDAGECAICLEELQQGDTIARLPCLCIYHKGCIDEWFEVNRSCPEHPSD (ZNRF2 RING domain (UniProt Q8NHG8)): 13200
KITELNPHLMCALCGGYFIDATTIVECLHSFCKTCIVRYLETNKYCPMCDVQVHKTRPLL (PCGF2 RING domain (UniProt P35227)): 0
SNNDLASLFECPVCFDYVLPPILQCQSGHLVCSNCRPKLTCCPTCRGPLGSIRNLA (SIAH1 RING domain (UniProt Q8IUQ4)): 2740
B2 (MARCHF2 RING domain): 0
B3 (CBLL1 RING domain): 0
MEEMEEELKCPVCGSFYREPIILPCSHNLCQACARNILVQTPESESPQSHRAAGSGVSDY (TRIM9 RING domain (UniProt Q9C026)): 0
B4 (NHLRC1 RING domain): 0
B5 (TRIM74 RING domain): 0

Block 6
Target: RNA binding protein fox-1 homolog 2, RRM domain, GST-SBP tag (RBFOX2, Homo sapiens, UniProt O43251-10, residues 100-194)
Technique: RNA Bind-n-Seq
Molecule type: RNA
Sample: in vitro
Concentration: 365 nM
Setting: natural RNA segment, single round, ends assumed
Baseline: no-protein control
Direction: higher = stronger binding
Quantity: RBNS enrichment (R)
All sequences stand within: GGGAGUUCUACAGUCCGACGAUC … UGGAAUUCUCGGGUGCCAA
Target sequence (chain): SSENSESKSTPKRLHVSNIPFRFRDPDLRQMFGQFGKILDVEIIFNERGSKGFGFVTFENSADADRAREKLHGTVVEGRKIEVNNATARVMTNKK
AAAGUUUUAUUUUUCUAAAAAAAGAAAAAAGAAGAAAAAAUUUAAAGGGUGUACUUAUAUCCACACUGCACACUGCCUGGCCCAAAACGUCUUAUUGUGGUAGGAUCAGC: 2.35
UUUUGGAUACUAGAAGUAUUAAUCUAUGGCUUUUCUCCCAGUAAAACCAUAGGCCUGAAGUUCACAUUGGGUCUUUAAAUCUUUUAGAUAUAUACUGGUCAUUUCAGAAA: 0.319
ACAACAGUUCCUGGCCCAAAAAAUCCAUAGAAAGAGGUAACUAGUGGCAGAUUUGGGGCGCCAACCUGAUUUUAUGGAUUUUGAGUUAGAUUCUCUACCCUCUAUCAAUA: 1.05
AACACAUGUUUUUAUACAAAAUAAGAACGAGGAUUUUAAUUUUUUUUAGUAUUUAUUUAUGUACUUUUAUUUUACACAGAAACACUGCCUUUUUAUUUAUAUGUACUGUU: 1.45
AGGUAGAGACAGGAAGAUGAGAAGUGCAAAGUAGUCUCGGCUAGGUAGUGUCAGGACUAUCCUGUGCUCUAUGACAUUCUAUCUCUAAAAAUGAAGCAACACUUUUUCUG: 0.714
CACUGUCAUAUAUUAGAUCCUUGUAUUAGUCCAUCCAUUAAUAUUAGUUCUAUUCGUGGUGCUAGGUAGCUUGACAGGUAUGAUAUGCAUAAGUCAUAGCUCUAUUCUUA: 0.602
UGUAUCUGGUUUCUACAUGGAAGACUAAACUCAUGCUUAUUGCUAAAUGUGGUCUUUGCCAACUAAAUUUAAGAUGCAGCAUUUUAGAAAUUUACAUAUCAAUGUUUCUA: 0.343
AAUUGUGGACUUUUAAAACCUGUUGACUAAACAGUAAUUAAUUUAUAUUUGUGAAAAAUGCCACUGUCCUAGUGAUUUCUGAUGUAAAUAAUGUUGUUUAUAUAGUAUGU: 0.43
CUCUUCUCCAAGAGCGCAUGCAAGAGUCUCCCCCCCUCAGCCUCAUUAAAGACGAAAAGCCACCUCGGUUUGCUUAACUUUAGAUAGAUAGGACCUGGCGCACACAAGAG: 3.71
UGCUGCUAAUUCCCAACAUUUCUUAAAUUAUUUUAUAUCAUACAGUUUUCAUUGAUUAUAUGGGUAUAUAUUCAUCUAAUAAAUCAGUGAACUGUUCCUCAUGUUGCUGA: 1.01
GGAUGGGGGACCUCCACUGGUGACAGAGAAGACACCAGGGUUUGGGGGAUGCCUGGGACUUUCCUCCGGCCUUUUGUAUUUUUAUUUUUGUUCAUCUGCUGCUGUUUACA: 1.28
CCUCCACAGUGAGGAAGCUGGCAGCGAGCAGGUAGACCUGGAGACUGCACGGCUGCUGAUUGGUCUUCUAUCUCCUGAAGUUUACUCAUGUUCUUAAAACUCCUGGUGAC: 0.392
